{"data": "Results from different studies", "organism": "Acinetobacter baumannii", "note": "Protocols differ between the studies behind these lines."}
{"Compound": "CCOC(=O)c1ccc2c(c1)n(CC)[c]([Au-]([Cl])([Cl])[Cl])[n+]2CC", "assay": "broth dilution", "test system": "DSM 30007", "setting": "20 h, 37 °C", "MIC": "7.3 µM"}
{"Compound": "CNS(=O)(=O)c1ccc(-n2nnc(/C(C)=N/NC(=N)N)c2C)cc1", "assay": "microbial growth, broth dilution", "test system": "AB5075", "MIC": "> 64 µg/mL"}
{"Compound": "COc1ccc2ccc3c(c2c1)C=[N+]1C2CCCCC2[N+]2=Cc4cccc(C)c4[O][Au-]21[O]3.F[P-](F)(F)(F)(F)F (stereo not shown)", "assay": "bacterial growth, broth microdilution", "test system": "carbapenem-resistant clinical isolate", "setting": "24 h", "MIC": "> 20 µM"}
{"Compound": "O=C(NCCNCCO)c1cn(Cc2ccc(F)cc2)c2cc(Cl)c(OCc3ccc(C(F)(F)F)cc3)cc2c1=O", "test system": "ATCC 19606", "how to read": "≥80% growth inhibition", "MIC": "1 µg/mL"}
{"Compound": "c1ccc(CN2CCOCCOCCN(CCCCCCCCCCN3CCOCCOCCN(CCCCCCCCCCN4CCOCCOCCN(Cc5ccccc5)CCOCCOCC4)CCOCCOCC3)CCOCCOCC2)cc1", "test system": "meropenem-resistant", "MIC": "26 µM"}
{"Compound": "CC[P+](CC)(CC)[Au-][S][C@@H]1O[C@H](COC(C)=O)[C@H](OC(C)=O)[C@H](OC(C)=O)[C@H]1OC(C)=O", "test system": "NCTC 13420", "MIC": "47 µM"}
{"Compound": "CC[C@@H](C)[C@@H](NC(=O)[C@@H](C)NC(=O)[C@@H](CCCCN)NC(=O)[C@@H](CC(C)C)NC(=O)[C@@H](C)NC(=O)[C@H](NC(=O)[C@@H](Cc1c[nH]cn1)NC(=O)[C@@H](CC(C)C)NC(=O)[C@H](NC(=O)[C@H](NC(=O)[C@@H](CCCCN)NC(=O)[C@H](NC(=O)[C@@H](C)NC(=O)[C@@H](CO)NC(=O)[C@@H](CCCCN)NC(=O)[C@@H](Cc1ccccc1)NC(=O)[C@H](NC(=O)[C@@H](CCCCN)NC(=O)[C@@H](CC(C)C)NC(=O)[C@@H](Cc1ccccc1)NC(=O)[C@@H](CO)NC(=O)[C@@H](CCCCN)NC(=O)[C@@H](Cc1c[nH]c2ccccc12)NC(=O)[C@@H](CCCCN)NC(C)=O)[C@H](C)O)C(C)C)[C@H](C)O)C(C)C)[C@H](C)O)C(=O)N[C@H](CO)C(=O)N[C@H](CO)C(N)=O", "assay": "broth microdilution", "test system": "ATCC 17978", "setting": "24 h, 37 °C", "MIC": "0.7 µM"}
{"Compound": "COc1ccc2ccc3c(c2c1)C=[N+]1C2CCCCC2[N+]2=Cc4ccccc4[O][Au-]21[O]3.F[P-](F)(F)(F)(F)F (stereo not shown)", "assay": "bacterial growth, broth microdilution", "test system": "carbapenem-resistant clinical isolate", "setting": "24 h", "MIC": "> 20 µM"}
{"Compound": "CC(C)S[C@H]1[C@H](O)[C@@H](N)[C@@H](O[C@H]2[C@H](O[C@@H]3O[C@H](CO)[C@@H](O[C@H]4O[C@@H](CN)[C@@H](O)[C@H](O)[C@H]4N)[C@H]3O)[C@@H](O)[C@H](N)C[C@@H]2N)O[C@@H]1CO", "test system": "reference strain", "MIC": "16 to 32 µg/mL"}
{"Compound": "Nc1nc(-c2ccc(NC(=O)c3cc(Cl)cc(Cl)c3)cc2)c[nH]1", "test system": "ATCC 19606", "setting": "compound alone", "MIC": "100 µM"}
{"note": "For quick reference, copied from above:"}
{"Compound": "CNS(=O)(=O)c1ccc(-n2nnc(/C(C)=N/NC(=N)N)c2C)cc1", "assay": "microbial growth, broth dilution", "test system": "AB5075", "MIC": "> 64 µg/mL"}
